Experimental data pooled from the literature.
Lines come from different studies, so protocols differ. ± gives the spread as reported.
Chain of UniProt P33535 (whole entry, looked up): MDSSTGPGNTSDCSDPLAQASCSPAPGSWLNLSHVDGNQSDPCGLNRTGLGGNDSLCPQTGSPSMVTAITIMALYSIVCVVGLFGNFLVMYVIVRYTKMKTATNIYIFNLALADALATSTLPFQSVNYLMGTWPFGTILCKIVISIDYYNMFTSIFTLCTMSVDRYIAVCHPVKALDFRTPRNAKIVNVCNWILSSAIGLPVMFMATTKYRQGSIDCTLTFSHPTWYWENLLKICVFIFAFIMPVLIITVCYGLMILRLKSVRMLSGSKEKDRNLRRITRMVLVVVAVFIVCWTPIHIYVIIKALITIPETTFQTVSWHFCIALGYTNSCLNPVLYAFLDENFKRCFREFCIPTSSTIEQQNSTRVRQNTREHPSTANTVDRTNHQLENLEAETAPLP
Chain of UniProt Q8NER1 (whole entry, looked up): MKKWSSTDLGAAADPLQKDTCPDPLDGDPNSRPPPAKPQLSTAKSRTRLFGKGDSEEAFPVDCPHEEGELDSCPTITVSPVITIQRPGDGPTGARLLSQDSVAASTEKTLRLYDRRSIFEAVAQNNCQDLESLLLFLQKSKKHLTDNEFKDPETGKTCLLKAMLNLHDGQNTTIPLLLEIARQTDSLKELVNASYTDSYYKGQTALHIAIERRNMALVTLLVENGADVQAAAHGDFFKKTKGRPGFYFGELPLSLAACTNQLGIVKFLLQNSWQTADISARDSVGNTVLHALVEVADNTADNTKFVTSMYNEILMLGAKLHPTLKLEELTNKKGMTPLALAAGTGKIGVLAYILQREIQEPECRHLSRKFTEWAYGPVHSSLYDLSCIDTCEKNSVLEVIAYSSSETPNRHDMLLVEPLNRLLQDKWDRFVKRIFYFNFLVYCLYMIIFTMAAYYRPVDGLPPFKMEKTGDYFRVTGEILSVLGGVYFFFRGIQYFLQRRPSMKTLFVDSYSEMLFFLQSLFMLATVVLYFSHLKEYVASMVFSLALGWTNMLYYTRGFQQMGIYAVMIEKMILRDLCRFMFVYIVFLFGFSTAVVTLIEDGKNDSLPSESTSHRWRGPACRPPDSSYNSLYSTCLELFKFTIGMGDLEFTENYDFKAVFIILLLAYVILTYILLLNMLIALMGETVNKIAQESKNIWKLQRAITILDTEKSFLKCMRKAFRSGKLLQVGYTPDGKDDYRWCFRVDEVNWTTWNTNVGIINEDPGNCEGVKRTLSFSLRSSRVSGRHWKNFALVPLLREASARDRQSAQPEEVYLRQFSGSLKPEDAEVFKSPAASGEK
Chain of UniProt P43220 (whole entry, looked up): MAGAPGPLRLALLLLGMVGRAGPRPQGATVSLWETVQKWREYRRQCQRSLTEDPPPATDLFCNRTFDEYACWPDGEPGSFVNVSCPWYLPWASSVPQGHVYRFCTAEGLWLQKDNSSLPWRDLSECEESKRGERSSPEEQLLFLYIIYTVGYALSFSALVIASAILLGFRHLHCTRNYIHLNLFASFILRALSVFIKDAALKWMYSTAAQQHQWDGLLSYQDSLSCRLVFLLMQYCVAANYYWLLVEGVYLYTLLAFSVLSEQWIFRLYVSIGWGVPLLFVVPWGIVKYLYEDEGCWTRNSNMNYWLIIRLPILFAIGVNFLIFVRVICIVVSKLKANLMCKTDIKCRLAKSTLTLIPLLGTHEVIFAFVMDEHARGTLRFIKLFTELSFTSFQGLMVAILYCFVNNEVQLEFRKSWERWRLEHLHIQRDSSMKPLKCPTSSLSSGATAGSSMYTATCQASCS
Chain of UniProt P35372 (whole entry, looked up): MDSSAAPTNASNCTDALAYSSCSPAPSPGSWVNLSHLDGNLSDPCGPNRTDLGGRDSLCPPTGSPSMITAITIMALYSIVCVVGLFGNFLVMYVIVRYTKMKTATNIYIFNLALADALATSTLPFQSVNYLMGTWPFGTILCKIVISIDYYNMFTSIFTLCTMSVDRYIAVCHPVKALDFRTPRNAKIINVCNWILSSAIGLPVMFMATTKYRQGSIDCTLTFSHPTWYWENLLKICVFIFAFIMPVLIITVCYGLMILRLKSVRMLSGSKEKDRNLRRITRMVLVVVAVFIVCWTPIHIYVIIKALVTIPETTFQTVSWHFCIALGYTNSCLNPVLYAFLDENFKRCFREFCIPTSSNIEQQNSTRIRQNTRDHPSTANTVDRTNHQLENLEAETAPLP
Chain of UniProt P34972 (whole entry, looked up): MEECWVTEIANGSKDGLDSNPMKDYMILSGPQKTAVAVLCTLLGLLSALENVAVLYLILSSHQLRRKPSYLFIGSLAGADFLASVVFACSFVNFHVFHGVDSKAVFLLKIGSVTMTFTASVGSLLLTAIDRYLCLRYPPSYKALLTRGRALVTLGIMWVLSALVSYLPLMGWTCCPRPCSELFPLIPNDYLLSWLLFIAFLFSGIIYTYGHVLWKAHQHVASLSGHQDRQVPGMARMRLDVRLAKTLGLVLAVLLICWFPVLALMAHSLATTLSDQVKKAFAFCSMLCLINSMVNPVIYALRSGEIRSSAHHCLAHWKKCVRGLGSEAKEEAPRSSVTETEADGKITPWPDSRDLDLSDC
Chain of UniProt P48736 (whole entry, looked up): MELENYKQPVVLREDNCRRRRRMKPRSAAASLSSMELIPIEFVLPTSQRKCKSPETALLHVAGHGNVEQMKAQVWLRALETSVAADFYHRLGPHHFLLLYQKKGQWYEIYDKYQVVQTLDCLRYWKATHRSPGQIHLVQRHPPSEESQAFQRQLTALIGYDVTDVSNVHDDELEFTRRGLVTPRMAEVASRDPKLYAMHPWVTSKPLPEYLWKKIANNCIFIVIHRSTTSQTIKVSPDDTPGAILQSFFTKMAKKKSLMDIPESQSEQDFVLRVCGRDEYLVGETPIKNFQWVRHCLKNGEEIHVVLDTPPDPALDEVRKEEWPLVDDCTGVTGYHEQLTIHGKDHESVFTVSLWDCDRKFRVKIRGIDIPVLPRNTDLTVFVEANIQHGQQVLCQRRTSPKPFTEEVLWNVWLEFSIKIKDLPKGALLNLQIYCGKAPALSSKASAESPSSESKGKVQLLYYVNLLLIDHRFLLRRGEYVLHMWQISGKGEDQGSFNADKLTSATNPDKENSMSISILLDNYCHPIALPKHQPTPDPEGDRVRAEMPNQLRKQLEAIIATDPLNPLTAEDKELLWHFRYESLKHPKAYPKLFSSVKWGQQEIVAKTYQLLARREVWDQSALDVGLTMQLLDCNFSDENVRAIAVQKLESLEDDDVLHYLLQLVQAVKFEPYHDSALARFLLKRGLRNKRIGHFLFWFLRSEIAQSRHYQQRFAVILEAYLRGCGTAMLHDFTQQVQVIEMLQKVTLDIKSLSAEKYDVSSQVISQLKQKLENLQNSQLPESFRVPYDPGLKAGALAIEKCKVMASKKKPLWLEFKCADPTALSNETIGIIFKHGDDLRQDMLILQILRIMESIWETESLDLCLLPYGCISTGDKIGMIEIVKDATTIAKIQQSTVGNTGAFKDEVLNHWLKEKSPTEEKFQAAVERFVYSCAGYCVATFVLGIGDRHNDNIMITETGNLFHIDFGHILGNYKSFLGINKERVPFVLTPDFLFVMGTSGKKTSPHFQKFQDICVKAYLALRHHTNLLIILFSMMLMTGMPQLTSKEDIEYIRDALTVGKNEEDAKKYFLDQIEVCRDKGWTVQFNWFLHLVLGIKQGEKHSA
Chain of UniProt P41143 (whole entry, looked up): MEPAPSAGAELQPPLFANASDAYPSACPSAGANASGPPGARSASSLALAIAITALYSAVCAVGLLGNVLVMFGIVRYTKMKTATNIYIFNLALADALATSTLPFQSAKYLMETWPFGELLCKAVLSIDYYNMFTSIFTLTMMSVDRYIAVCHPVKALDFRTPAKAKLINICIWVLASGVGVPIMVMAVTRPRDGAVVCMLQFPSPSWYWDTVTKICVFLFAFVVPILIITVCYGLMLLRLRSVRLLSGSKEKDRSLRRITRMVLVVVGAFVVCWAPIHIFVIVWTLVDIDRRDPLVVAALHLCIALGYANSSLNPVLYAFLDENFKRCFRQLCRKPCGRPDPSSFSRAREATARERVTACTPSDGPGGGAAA
Chain of UniProt Q0P543 (whole entry, looked up): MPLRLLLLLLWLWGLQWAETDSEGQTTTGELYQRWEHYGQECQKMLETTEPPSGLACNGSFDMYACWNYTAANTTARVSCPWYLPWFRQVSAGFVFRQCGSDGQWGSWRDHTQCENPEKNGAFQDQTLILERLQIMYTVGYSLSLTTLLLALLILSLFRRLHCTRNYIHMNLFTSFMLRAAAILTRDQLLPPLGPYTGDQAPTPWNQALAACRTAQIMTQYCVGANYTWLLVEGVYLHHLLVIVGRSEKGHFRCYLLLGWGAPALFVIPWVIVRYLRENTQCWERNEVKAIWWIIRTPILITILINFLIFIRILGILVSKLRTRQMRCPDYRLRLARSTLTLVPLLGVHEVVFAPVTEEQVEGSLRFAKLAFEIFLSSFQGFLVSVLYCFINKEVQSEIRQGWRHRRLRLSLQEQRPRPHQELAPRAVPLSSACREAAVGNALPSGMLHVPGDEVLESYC
Chain of UniProt P33533 (whole entry, looked up): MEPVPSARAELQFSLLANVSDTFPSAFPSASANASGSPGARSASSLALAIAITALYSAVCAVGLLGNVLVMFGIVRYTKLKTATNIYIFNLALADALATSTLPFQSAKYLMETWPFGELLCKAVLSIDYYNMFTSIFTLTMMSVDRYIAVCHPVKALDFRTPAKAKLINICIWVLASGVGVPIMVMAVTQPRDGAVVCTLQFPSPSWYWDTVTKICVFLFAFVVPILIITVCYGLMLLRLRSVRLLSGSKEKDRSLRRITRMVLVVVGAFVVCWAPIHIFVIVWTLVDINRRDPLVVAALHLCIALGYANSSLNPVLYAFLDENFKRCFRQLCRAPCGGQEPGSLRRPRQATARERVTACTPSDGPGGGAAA

For `CC(C)C[C@H](NC(=O)[C@H](CCCCN)NC(=O)[C@H](CCCNC(=N)N)NC(=O)[C@H](C)NC(=O)[C@H](CO)NC(=O)[C@H](CCCCN)NC(=O)[C@H](CCCNC(=N)N)NC(=O)[C@H](C)NC(=O)CNC(=O)[C@@H](NC(=O)[C@H](Cc1ccccc1)NC(=O)CNC(=O)CNC(=O)[C@@H](N)Cc1ccccc1)[C@@H](C)O)C(=O)N[C@@H](C)C(=O)N[C@@H](CC(N)=O)C(=O)N[C@@H](CCC(N)=O)C(=O)O`, pEC50 read “inactive” (Mu-type opioid receptor (OPRM1, Homo sapiens, UniProt P35372); β-arrestin 2 recruitment, agonist, BRET; SH-SY5Y; 15 min, room temperature, inactive up to 1 µM).
With `C[C@H](Nc1ncnc(N)c1C#N)c1c(-c2ccccc2)[nH]c2c(Cl)cccc2c1=O` the selectivity ratio was 131 (Phosphatidylinositol 4,5-bisphosphate 3-kinase catalytic subunit gamma isoform (PIK3CG, Homo sapiens, UniProt P48736); enzyme activity; reference: IC50 PIK3CG over PI3Kδ).
The inhibition of `C[Si](C)(C)C[C@H](CN)CC(=O)O` is reported as 11% (Transient receptor potential cation channel subfamily V member 1 (TRPV1, Homo sapiens, UniProt Q8NER1); ligand displacement, radioligand; 250 µM).
`CC(C)C[C@@H]1NC(=O)[C@@H](NC(=O)[C@H](CC(=O)O)NC(=O)[C@H](C)N)CSSC[C@@H]2NC(=O)[C@@H]3CSSC[C@@H](C(=O)N[C@@H](CCCNC(=N)N)C(=O)O)NC(=O)[C@H](CCCNC(=N)N)NC(=O)[C@H](CCC(N)=O)NC(=O)[C@H](CCC(=O)O)NC(=O)[C@@H]4CCCN4C(=O)[C@H](CC(N)=O)NC(=O)[C@H]([C@@H](C)O)NC(=O)CNC(=O)[C@H](CCCNC(=N)N)NC(=O)[C@H](CCCNC(=N)N)NC(=O)[C@H](CO)NC(=O)[C@H](CSSC[C@H](NC(=O)[C@H](CC(C)C)NC(=O)[C@H](CCCCN)NC(=O)[C@H](CC(C)C)NC(=O)[C@H](Cc4c[nH]cn4)NC(=O)[C@H](C)NC1=O)C(=O)N[C@@H](CCCCN)C(=O)N[C@@H](CCCCN)C(=O)N[C@@H](CC(N)=O)C(=O)N[C@@H](CCCCN)C(=O)N[C@@H](CC(=O)O)C(=O)N3)NC(=O)[C@H](CCCCN)NC(=O)[C@H](CCCCN)NC(=O)[C@H](CO)NC2=O`: “specific [3H]ryanodine binding” 23.4 ± 5.6% (Ryanodine receptor 1 (RYR1, Oryctolagus cuniculus, UniProt P11716); activator; 100 nM, 120 min, pH 7.2, 36 °C, pCa 8; reference: control at pCa 5).
`CC[C@H](C)[C@H](NC(=O)[C@H](CCCN)NC(=O)[C@H](CC(=O)O)NC(=O)[C@H](CC(C)C)NC(=O)C(C)(CC(C)C)NC(=O)[C@@H](NC(=O)[C@H](CO)NC(=O)[C@H](Cc1ccc(O)cc1)NC(=O)[C@H](CC(=O)O)NC(=O)[C@H](CO)NC(=O)[C@@H](NC(=O)[C@H](Cc1ccccc1)NC(=O)[C@@H](NC(=O)CNC(=O)[C@H](CCC(=O)O)NC(=O)C(C)(C)NC(=O)[C@@H](N)Cc1ccc(O)cc1)[C@@H](C)O)[C@@H](C)CC)[C@@H](C)CC)C(=O)N[C@@H](Cc1c[nH]cn1)C(=O)N[C@@H](CCC(N)=O)C(=O)NC(C)(C)C(=O)N[C@@H](CC(=O)O)C(=O)N[C@@H](Cc1ccccc1)C(=O)N[C@H](C(=O)N[C@@H](CCC(=O)O)C(=O)N[C@@H](Cc1ccc(O)cc1)C(=O)N[C@@H](CCCCNC(=O)COCCOCCNC(=O)COCCOCCNC(=O)CC[C@H](NC(=O)CCCCCCCCCCCCCCCCCCC(=O)O)C(=O)O)C(=O)N[C@@H](CC(C)C)C(=O)N[C@@H](CCC(=O)O)C(=O)NCC(=O)NCC(=O)N1CCC[C@H]1C(=O)N[C@@H](CO)C(=O)N[C@@H](CO)C(=O)NCC(=O)N[C@@H](C)C(=O)N1CCC[C@H]1C(=O)N1CCC[C@H]1C(=O)N1CCC[C@H]1C(=O)N[C@@H](CO)C(N)=O)C(C)C` (some centres unmarked) has a potency ratio of about 600 fold (Gastric inhibitory polypeptide receptor (Mus musculus, UniProt Q0P543); cAMP accumulation, agonist; HEK293; reference: human GIPR over mouse GIPR).
For `C[C@H](NC(=O)CNC(=O)[C@@H]1CCCN1C(=O)[C@H](CO)NC(=O)CNC(=O)[C@H](CO)NC(=O)[C@H](C)NC(=O)[C@H](CC(N)=O)NC(=O)[C@H](C)NC(=O)[C@H](CO)NC(=O)[C@H](C)NC(=O)[C@H](CO)NC(=O)[C@@H]1CCCN1C(=O)[C@H](Cc1ccccc1)NC(=O)[C@H](C)NC(=O)[C@H](CO)NC(=O)[C@@H]1CCCN1C(=O)[C@H](Cc1ccccc1)NC(=O)[C@@H](NC(=O)[C@H](CC(=O)O)NC(=O)[C@@H](N)CO)[C@@H](C)O)C(=O)N[C@@H](CCCNC(=N)N)C(=O)N[C@@H](CO)C(=O)O`, the koff was 8.06 ± 0.72 s⁻¹ (Oprd1/Oprm1 (Rattus norvegicus, UniProt P33533+P33535)).
`CCCCCCCCCCCCCCCC(=O)N[C@@H](CCC(=O)NCCCC[C@H](NC(=O)[C@H](CO)NC(=O)[C@@H]1CCCN1C(=O)[C@@H]1CCCN1C(=O)[C@@H]1CCCN1C(=O)[C@H](C)NC(=O)CNC(=O)[C@H](CO)NC(=O)[C@H](CO)NC(=O)[C@@H]1CCCN1C(=O)CNC(=O)CNC(=O)[C@H](C)NC(=O)[C@H](CC(C)C)NC(=O)[C@H](CC(C)C)NC(=O)[C@H](Cc1c[nH]c2ccccc12)NC(=O)[C@H](CC(N)=O)NC(=O)[C@@H](NC(=O)[C@H](Cc1ccccc1)NC(=O)[C@H](CCC(=O)O)NC(=O)C(C)(C)NC(=O)[C@H](C)NC(=O)[C@H](C)NC(=O)[C@H](CCC(N)=O)NC(=O)[C@H](CCCCN)NC(=O)[C@H](CC(=O)O)NC(=O)[C@H](CC(C)C)NC(=O)[C@H](Cc1ccc(O)cc1)NC(=O)[C@@H](NC(=O)[C@H](CO)NC(=O)[C@H](Cc1ccc(O)cc1)NC(=O)[C@H](CC(=O)O)NC(=O)[C@H](CO)NC(=O)[C@@H](NC(=O)[C@H](Cc1ccccc1)NC(=O)[C@@H](NC(=O)CNC(=O)[C@H](CCC(=O)O)NC(=O)CSCC(=O)NCCN1C(=O)CSC1=O)[C@@H](C)O)[C@@H](C)O)[C@@H](C)CC)C(C)C)C(N)=O)C(=O)O` has an Emax of under 5% (Glucagon-like peptide 1 receptor (GLP1R, Homo sapiens, UniProt P43220); β-arrestin recruitment, agonist).
With `NS(=O)(=O)c1ccc(NC(=O)c2ccccc2SSc2ccccc2C(=O)Nc2ccc(S(N)(=O)=O)cc2)cc1` the Hill coefficient was 1.37 (Gag-Pol polyprotein, integrase (gag-pol, Human immunodeficiency virus type 1 group M subtype B, UniProt P04585, C1427S); DNA binding, fluorescence anisotropy; HIV-1; compound:integrase ratio 3:1, added: U5 DNA, no divalent cation).
Under “decrease in efficacy”, `CC[C@H](C)[C@@H]1NC(=O)[C@H]([C@@H](C)O)NC(=O)[C@H](CCC(=O)O)NC(=O)[C@H](CO)NC(=O)[C@H](Cc2ccc(O)cc2)NC(=O)[C@@H]2CSCc3cc(cc(c3)CSC[C@H](N)C(=O)N[C@@H](Cc3ccccc3)C(=O)N[C@@H]([C@@H](C)O)C(=O)NCC(=O)N[C@@H](CCCCN)C(=O)N2)CSC[C@@H](C(N)=O)NC(=O)CNC1=O` is recorded as about 30% (Cannabinoid receptor 2 (CNR2, Homo sapiens, UniProt P34972); β-arrestin-2 recruitment; HEK293; concentration not given, added: 2-AG 1 µM).
`CSCC[C@@H]1NC(=O)[C@H](Cc2ccccc2)NC(=O)CNC(=O)[C@H](NC(=O)[C@@H](N)Cc2ccc(O)cc2)CSSC[C@H](C(=O)N[C@@H](Cc2c[nH]c3ccccc23)C(=O)NCc2cc(C(F)(F)F)cc(C(F)(F)F)c2)NC(=O)[C@@H]2CCCN2C1=O` has an Emax of 110% (Delta-type opioid receptor (OPRD1, Homo sapiens, UniProt P41143); GTPγS binding, agonist, radiometric; cell membranes).
For `CC[C@H](C)[C@H](N)C(=O)N[C@@H](CC(N)=O)C(=O)N[C@@H](CC(N)=O)C(=O)N[C@H](C(=O)N1C[C@@H](n2cc([C]34[CH]5[CH]6[CH]7[CH]3[Fe]6754389%10[CH]4[CH]3[CH]8[CH]9[CH]4%10)nn2)C[C@H]1C(=O)N[C@@H](Cc1cn(C)c2ccccc12)C(N)=O)[C@@H](C)CC` (some centres unmarked), the binding stoichiometry was 1.13 (Envelope glycoprotein gp160, gp120 (env, Human immunodeficiency virus type 1 group M subtype B, UniProt P35961, S370A); ITC; concentration not given, gp120 S375A mutant).

A few entries again:
Under “decrease in efficacy”, `CC[C@H](C)[C@@H]1NC(=O)[C@H]([C@@H](C)O)NC(=O)[C@H](CCC(=O)O)NC(=O)[C@H](CO)NC(=O)[C@H](Cc2ccc(O)cc2)NC(=O)[C@@H]2CSCc3cc(cc(c3)CSC[C@H](N)C(=O)N[C@@H](Cc3ccccc3)C(=O)N[C@@H]([C@@H](C)O)C(=O)NCC(=O)N[C@@H](CCCCN)C(=O)N2)CSC[C@@H](C(N)=O)NC(=O)CNC1=O` is recorded as about 30% (Cannabinoid receptor 2 (CNR2, Homo sapiens, UniProt P34972); β-arrestin-2 recruitment; HEK293; concentration not given, added: 2-AG 1 µM).
